Assay results from different studies.
Numbered parts are unrelated; each lists some results of a single study. Substitutions count along the parent as printed.

Series 1 — technique: RNA Bind-n-Seq; molecule type: RNA; matrix: in vitro; concentration: 1 µM; setting: whole 134-nt RNA, ends assumed; with: 150 mM KCl; reference: input library; direction: higher = stronger binding; quantity: log2 enrichment
Target: Ras GTPase-activating protein-binding protein 1, C-terminal RGG region (G3BP1, Homo sapiens, UniProt Q13283)
Sequence of UniProt Q13283 (whole entry, looked up): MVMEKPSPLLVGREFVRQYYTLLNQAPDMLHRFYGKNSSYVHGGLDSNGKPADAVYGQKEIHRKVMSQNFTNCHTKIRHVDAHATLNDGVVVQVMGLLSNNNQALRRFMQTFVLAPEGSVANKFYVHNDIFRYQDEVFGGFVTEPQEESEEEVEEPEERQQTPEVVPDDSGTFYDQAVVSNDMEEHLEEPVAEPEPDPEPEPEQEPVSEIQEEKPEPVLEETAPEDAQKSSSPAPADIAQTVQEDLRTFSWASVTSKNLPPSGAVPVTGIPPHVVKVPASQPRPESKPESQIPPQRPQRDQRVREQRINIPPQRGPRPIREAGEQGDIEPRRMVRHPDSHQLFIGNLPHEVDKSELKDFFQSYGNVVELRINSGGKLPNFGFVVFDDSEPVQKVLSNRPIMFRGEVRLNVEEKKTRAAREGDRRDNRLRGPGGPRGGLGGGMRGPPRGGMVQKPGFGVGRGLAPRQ
Oligonucleotide = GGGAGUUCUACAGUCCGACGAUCACCAUGCAGGUGGGCAUAUUUGGGAAGUGGGGCAAGGGGGGGAUAGGGAGGGGGGUAACACUUUGGGAACAGGUGGUCCCAGGUCGUUUCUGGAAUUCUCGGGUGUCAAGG; value = -0.879
Oligonucleotide = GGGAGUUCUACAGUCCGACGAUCAAGUCCUGUGCUACACAUCGUAUGUACCGAAUCGGGAAAAAAAGGGUGGGAAAGGGAAAGUAUUAUGUUACGCCGUUCGGAUCUGCACUUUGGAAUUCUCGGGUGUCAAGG; value = 0.827
Oligonucleotide = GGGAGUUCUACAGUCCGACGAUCUCAAGUCCUGUGCUACACAUCGUAUGUACCGAAUCGGGAAAAAGGGUGGGAGGGAAAGUAUUAUGUUACGCCGUUCGGAUCUGCACUUCCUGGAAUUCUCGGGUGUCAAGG; value = 1.62
Oligonucleotide = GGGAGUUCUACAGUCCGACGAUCGCAGGAAGUAAAAACAAAUGGAAAUGCUUCGGAUAGUGGCAGGGGUGGGGGUUGCUAAGGCAAGGGUGGGAUGGGAGUGGGUAAAGAGUUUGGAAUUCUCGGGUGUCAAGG; value = 1.61
Oligonucleotide = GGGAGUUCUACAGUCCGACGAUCUGGCCCUGGUGGCAUGCGGGGAGGAAGAGGUGGCCUCAUGGAUCGUGGUAGUCCCGGUGGAAUGUUCAGAGGUGGCCGUGGUGGAGACAGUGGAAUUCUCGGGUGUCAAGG; value = 2.19
Oligonucleotide = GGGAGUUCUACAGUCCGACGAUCGUCCUGUGCUACACAUCGUAUGUACCGAAUCGGGAAAGGGUUUUUGGGAAAAAAAGGGAAAGUAUUAUGUUACGCCGUUCGGAUCUGCACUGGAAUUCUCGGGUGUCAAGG; value = -0.627
Oligonucleotide = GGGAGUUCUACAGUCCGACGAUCAUGCACUUGACAUAGUAGCAAAUUGGUUCUGAAUUAUGCAACUGUUUGCUAUUUAGUAAACUAGCAAAUGAUGCAUGUAUUUUGUUUUUCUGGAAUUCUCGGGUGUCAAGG; value = -2.03
Oligonucleotide = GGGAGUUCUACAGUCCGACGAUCAAGUCCUGUGCUACACAUCGUAUGUACCGAAUCGGGGAGGGGAAAGGGGUUUGGGGAAAGUAUUAUGUUACGCCGUUCGGAUCUGCACUUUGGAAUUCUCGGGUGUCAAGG; value = 2.82
Oligonucleotide = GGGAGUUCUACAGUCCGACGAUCUAACUUUAGAGGAGGAUCUGAUGGAUAUGGCAGUGGACGUGGAUUUGGGGAUGACUAUAAUGGGUAUGGAGGAGGACCUGGAGGUGGCAAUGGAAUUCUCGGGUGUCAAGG; value = -0.66
Oligonucleotide = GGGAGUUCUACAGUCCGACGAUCUGGCCCUGGUGGCAAGCGGGGAGGAAGAGGUGGCCUCAUGGAUCGUGGUGGUCCCGGUGGAAUGUUCAGAGGUGGCCGUGGUGGAGACAGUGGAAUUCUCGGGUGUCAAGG; value = 1.94
Oligonucleotide = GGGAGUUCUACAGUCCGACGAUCACCAUGCAGGUGGGCAUCUUUGGGAAGUGGGGCAAGGGGGGGAUAGGGAGGGGGGUAACACUUUGGGAAAAGGUGGUCCCAGGUCGUUUCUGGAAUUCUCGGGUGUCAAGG; value = -1.65
Oligonucleotide = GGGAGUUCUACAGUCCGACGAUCCUCAAGUCCUGUGCUACACAUCGUAUGUACCGAAUCGGGGUUGGUUGGGGUUGGAAAGUAUUAUGUUACGCCGUUCGGAUCUGCACUUCCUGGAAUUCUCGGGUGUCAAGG; value = -0.527
Oligonucleotide = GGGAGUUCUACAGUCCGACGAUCUUUCUGUGUGCUUAGGUGCCCGAGCUACUGAGGGUCUAAGUCCGGGCAGCCGAAGAGUGUGGUAGGUAACGGUCCUCAGCGCAAGGGUCAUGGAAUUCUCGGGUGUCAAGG; value = -0.449
Oligonucleotide = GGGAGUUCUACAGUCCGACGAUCGUCCUGUGCUACACAUCGUAUGUACCGAAUCGGAAAAAAGGGGAAAAAAGGAAAAAAGGAAAGUAUUAUGUUACGCCGUUCGGAUCUGCAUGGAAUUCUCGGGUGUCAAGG; value = -1.47

Series 2 — technique: RNA Bind-n-Seq; molecule type: RNA; matrix: in vitro; concentration: not given; setting: RNA with constant flanks, ends assumed; reference: input RNA pool; direction: higher = stronger binding; quantity: bound/input enrichment
Target: RING finger protein unkempt homolog, zinc fingers 1-6, GST-SBP tag (UNK, Homo sapiens, UniProt Q9C0B0, residues 30-357)
Construct (chain): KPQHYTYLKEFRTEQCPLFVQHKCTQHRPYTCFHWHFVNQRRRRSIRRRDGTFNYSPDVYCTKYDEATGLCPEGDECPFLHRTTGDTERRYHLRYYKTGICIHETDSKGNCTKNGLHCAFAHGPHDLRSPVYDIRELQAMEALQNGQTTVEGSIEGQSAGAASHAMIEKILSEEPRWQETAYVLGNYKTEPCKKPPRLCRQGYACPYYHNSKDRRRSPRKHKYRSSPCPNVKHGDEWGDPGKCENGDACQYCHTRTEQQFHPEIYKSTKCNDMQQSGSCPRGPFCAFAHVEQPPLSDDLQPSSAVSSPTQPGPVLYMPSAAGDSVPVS
Oligonucleotide = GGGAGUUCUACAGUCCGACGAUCAAGAGGAAGCUGAUUGUUGACAGUGUCAAAGAAUUGGAUAGUAAGACCAUUAGAGCCCAGCUCCGCGAUUAUUCUGAUAUUGUUACGACUCUGGACCUGGCUCCGCCAACCAAGAAGCUUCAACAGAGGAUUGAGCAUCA; value = 0.105 ratio
Oligonucleotide = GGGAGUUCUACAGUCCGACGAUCGAGGAGAAGCCGCCUAAUCCUAUGGAAGGCAUGACAGAGGAGCAGAAGGAACAUGAGGCCAUGAAGCCCGUGAACAUGUUUGACAAGCUCUCCAGGCACAGAGUCAUCCAACCCAUGGGGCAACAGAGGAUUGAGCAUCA; value = 0.137 ratio
Oligonucleotide = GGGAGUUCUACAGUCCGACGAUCCCUGACAAGCUGAACAAUGGUGGAUCUGAUAGCCCAUGUGACUUGAAAUCACCUAGUGCUUUCCGUGAAAACCGGCAGGACUAUUUUGAAUAUGAGUCAACUAACCCGUUUACAGCAAAACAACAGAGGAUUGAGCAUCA; value = 0.157 ratio
Oligonucleotide = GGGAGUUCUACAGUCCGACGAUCGUGACUUUGGAAGUCCGUAGUGUCUCAUUGCAGAUAAUUUUUAGCUUAGGGCCUGGUGGCCCGGUCGGUUCUCUCCUUUCCAGUCGGAGACCUCUGCCGCAAACAUGCUCCGCCAGAUCACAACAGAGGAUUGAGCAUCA; value = 11.6 ratio
Oligonucleotide = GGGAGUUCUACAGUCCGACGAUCUAUUUAAUAUCACCUCUAGAUUUUGUACCUGAAGCCUUGUUUGGAAUUCUGGGCUUUCCCGAUGAUUUCUUUGUUAUCUUUUUGUUGCUUAUUUACAUCUCCAUUAUGUAUCGAGAAGUGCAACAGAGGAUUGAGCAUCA; value = 1.62 ratio
Oligonucleotide = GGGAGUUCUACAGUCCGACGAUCUCCUCAACUAGAGAACAUGUUCAAAAGAAAGCUGCAGAAUGGAAAAUCAAGAUAGAUAUUACCGCAGAACUUCGAUAUGACCUGCCAGCAUCAUACAAGUUUCACAAAAAGAAAUCAGUGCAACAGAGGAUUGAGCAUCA; value = 2.21 ratio
Oligonucleotide = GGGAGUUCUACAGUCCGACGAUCGUGGAGUUGAUGUCCUUCCCUGGCUCGCUACAGACGCACUUCCGCAAGUGUUACAGCUCUUUCCGAAUUUGUCUAGCAGGUUUUCUGACUUCGGUCGGAAAACCCCUCCCAAUUUCACUGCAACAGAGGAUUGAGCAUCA; value = 0.272 ratio
Oligonucleotide = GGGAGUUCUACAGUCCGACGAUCCAGGAGUGUGGGGAGUGCUUUGCUCAUAGCUCUGACCUCACUGAGCACCAGAAGAUUCAUGACCGGGAGAAGCCCUCUGGAAGCAGAAACUAUGAAUGGUCUGUCAUUCGCAGCUUGGCCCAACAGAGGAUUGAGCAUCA; value = 0.0885 ratio
Oligonucleotide = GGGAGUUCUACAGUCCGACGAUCAGUGAAAAUAUUUCUGCAGCUAUCCAAGCUAAUGGUGAAAUGGUUACAAAGCAACCAUUGAUCCGAAGUAUGCGAACUGUAAAAAGGGAAACUUUAAAGUUAAUAUCUGGUUGGGUGAGCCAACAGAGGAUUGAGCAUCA; value = 0.216 ratio
Oligonucleotide = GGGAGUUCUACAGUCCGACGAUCGUUUUUUUUUUUUUUUUUUUUUUGCUGCUGACAUUGUAAUUAGCAUAUUCUCAACAGCAAUCCGGAAACAAUGCCUUAUAUAUGUGCUUUGGGGGGUUGAAGGGACAAAGUAGUAGCUGUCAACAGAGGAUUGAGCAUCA; value = 1.32 ratio
Oligonucleotide = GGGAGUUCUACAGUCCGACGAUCAAGAGGAAGCUAAUUGUUGACAGUGUCAAAGAGUUGGAUAGCAAGACAAUUAGAGCCCAACUCCGUGAUUAUUCAGAUAUUGUUACUACUUUGGAUCUGGCACCGCCCACCAAGAAAUUGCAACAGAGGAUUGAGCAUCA; value = 0.23 ratio

Series 3 — technique: protein binding microarray; molecule type: double-stranded DNA, one strand shown; matrix: in vitro; concentration: not given; reference: not given; direction: higher = stronger binding; quantity: E-score
Target: Histone acetyltransferase KAT6A, winged helix 1, GST fusion (KAT6A, Homo sapiens, UniProt Q92794, residues 1-85)
Setting: 8-mer, flanks averaged, mean of 2 arrays, mostly near background
Target sequence (chain): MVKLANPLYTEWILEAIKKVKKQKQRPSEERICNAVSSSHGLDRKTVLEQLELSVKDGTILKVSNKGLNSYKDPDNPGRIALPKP
Oligonucleotide = AACAAGCA; value = -0.17
Oligonucleotide = ATGGGATC; value = -0.0985
Oligonucleotide = CCTTAGAG; value = -0.116
Oligonucleotide = GATGGATA; value = -0.101
Oligonucleotide = CTCTATAA; value = -0.162
Oligonucleotide = AGGGAAAT; value = -0.242
Oligonucleotide = CCTCCCGC; value = 0.309
Oligonucleotide = AGAATTTG; value = -0.229
Oligonucleotide = GTACCAGA; value = -0.0782
Oligonucleotide = GTTTCCCA; value = -0.172
Oligonucleotide = CAGATAAG; value = -0.112
Oligonucleotide = CGGCCAAA; value = 0.103
Oligonucleotide = GATTAATC; value = -0.0502
Oligonucleotide = AACAGTGA; value = -0.0646
Oligonucleotide = CTAACCCA; value = -0.122
Oligonucleotide = CTAGTGCC; value = 0.216
Oligonucleotide = ATGAGGTC; value = -0.23
Oligonucleotide = AGTCCAGG; value = -0.233
Oligonucleotide = AAAGTCCG; value = 0.161
Oligonucleotide = AAGTTGAC; value = -0.224
Oligonucleotide = TTCTGCAA; value = 0.0062

Series 4 — technique: DHFR PCA, deep sequencing; matrix: yeast; with: (+)-ABA 710 µM; reference: wild-type fitted maximum; direction: higher = stronger binding; quantity: relative binding score
Target: ABI1, truncated, D143A, DHFR fusion (Arabidopsis thaliana)
Setting: methotrexate growth selection, single substitutions
Starting sequence: PYL1, truncated, DHFR fusion (Arabidopsis thaliana); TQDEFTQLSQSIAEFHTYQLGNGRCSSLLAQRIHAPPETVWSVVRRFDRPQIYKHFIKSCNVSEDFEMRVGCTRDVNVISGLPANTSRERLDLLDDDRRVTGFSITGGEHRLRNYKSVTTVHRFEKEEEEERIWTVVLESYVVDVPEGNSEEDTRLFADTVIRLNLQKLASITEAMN
Change = F56E; value = 13.4%
Change = T173H; value = 77.3%
Change = E89Y; value = -4.45%
Change = F47V; value = 6.53%
Change = S140F; value = 17.7%
Change = L82A; value = 80%
Change = A170V; value = 81.8%
Change = P50F; value = -0.777%
Change = L112W; value = 4.3%
Change = T86D; value = 99%
Change = S171D; value = 105%
Change = R32N; value = 94.6%
Change = G148Q; value = 87.9%
Change = V70R; value = 96.7%
Change = E174N; value = 90.5%

Series 5 — target: CCND1, cyclin fold, Cln2 fusion (human); technique: yeast growth competition, sequencing; matrix: yeast; setting: weak parent motif; reference: not given; direction: higher = stronger binding; quantity: normalised enrichment score
Starting sequence: CABLES2 docking peptide (human); ICAKRSLCAAFSV
Change = ICAKRSACAAFSV [L7A]; value = -0.129
Change = ICAKASLCAAFSV [R5A]; value = -0.0719
Change = ACAKRSLCAAFSV [I1A]; value = -0.14
Change = ICAKRSLCAAFSA [V13A]; value = 0.0474
Change = ICAKRSLAAAFSV [C8A]; value = -0.0924

Mixed results
Molecule = PhoQ, residues 284 288 289 292 302 303 SSTLLI; target = PhoP, residues 12 14 15 18 19 LHHVQ (Escherichia coli, UniProt P23836); test = Sort-seq, refers to: YFP reporter; test system = E. coli; conditions = PhoQ-PhoP variant library, with: 10 µM Mg2+; how to read = reference: high Mg2+ state, higher = stronger signaling; quantity = fold induction; value = 0.153
